Assay results of several laboratories.
Each numbered part is a random draw from the data of one study; scales do not carry over between parts. Changes are numbered by the printed parent chain.

Sample 1 — target: CCND2, cyclin fold, Cln2 fusion (human); technique: yeast growth competition, sequencing; matrix: yeast; setting: weak parent motif; reference: not given; direction: higher = stronger binding; measurement: normalised enrichment score
Starting sequence: viral docking peptide; KGVKRKLFAEDSS; partner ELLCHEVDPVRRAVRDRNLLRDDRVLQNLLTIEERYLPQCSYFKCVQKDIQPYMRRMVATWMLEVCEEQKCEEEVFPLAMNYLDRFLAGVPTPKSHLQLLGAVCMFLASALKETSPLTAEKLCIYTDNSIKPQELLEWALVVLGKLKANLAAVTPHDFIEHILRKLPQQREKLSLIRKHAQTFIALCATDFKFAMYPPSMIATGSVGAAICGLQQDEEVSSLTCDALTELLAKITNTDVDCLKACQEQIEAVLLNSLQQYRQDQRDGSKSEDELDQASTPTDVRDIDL
KGVKRKSFAEDSS [L7S]: 0.37
KGVKRKLFAEDVS [S12V]: -0.000293
KGVKPKLFAEDSS [R5P]: 0.114
KGVKRKLFAYDSS [E10Y]: -0.437
KGVKRKPFAEDSS [L7P]: 0.0658
KGVKRKAFAEDSS [L7A]: 0.0112
KGVKRKIFAEDSS [L7I]: 0.368
KGVLRKLFAEDSS [K4L]: 0.0653
KGVKMKLFAEDSS [R5M]: 0.00648
KQVKRKLFAEDSS [G2Q]: 0.256
KGVKRHLFAEDSS [K6H]: 0.143
KGVKRKLFREDSS [A9R]: 0.646
KGVKRELFAEDSS [K6E]: 0.372
KGVRRKLFAEDSS [K4R]: 0.385
KGVKRKLFAEASS [D11A]: 0.119

Sample 2 — technique: aptamer microarray, sandwich; form: DNA with 2'F-ANA; matrix: in vitro; concentration: 200 nM; with: Cy3 exosite-II aptamer, 400 nM; direction: higher = stronger binding; measurement: mean fluorescence intensity; strand: GGTTGGTGTGGTTGG
Target: Prothrombin, mature alpha-thrombin (F2, Homo sapiens, UniProt P00734)
Setting: whole 15-mer aptamer, many near background
2'F-ANA at 1 2 3 5 10 11: 49.9 a.u.
2'F-ANA at 2 6 7 9 11 12 14: 181 a.u.
2'F-ANA at 2 3 5 7 11 12 14 15: 55.3 a.u.
2'F-ANA at 1 2 5 9 10 11 14 15: 48.3 a.u.
2'F-ANA at 4 5 7 8 9 10 11 15: 55.3 a.u.
2'F-ANA at 1 4 5 8 10 15: 44.9 a.u.
2'F-ANA at 3 4 5 10 11 15: 50.9 a.u.
2'F-ANA at 3 8 9 10 14: 507 a.u.

Sample 3 — target: inorganic phosphate, free oxyanion; technique: microfluidic competitive inhibition; matrix: in vitro, cell-free expressed; concentration: not given; direction: lower = stronger binding; measurement: phosphate dissociation constant
Setting: derived from inhibition constants, unchanged parent 615000 nM
Starting sequence: PafA, mature enzyme, eGFP fusion (Elizabethkingia meningoseptica, UniProt Q9KJX5); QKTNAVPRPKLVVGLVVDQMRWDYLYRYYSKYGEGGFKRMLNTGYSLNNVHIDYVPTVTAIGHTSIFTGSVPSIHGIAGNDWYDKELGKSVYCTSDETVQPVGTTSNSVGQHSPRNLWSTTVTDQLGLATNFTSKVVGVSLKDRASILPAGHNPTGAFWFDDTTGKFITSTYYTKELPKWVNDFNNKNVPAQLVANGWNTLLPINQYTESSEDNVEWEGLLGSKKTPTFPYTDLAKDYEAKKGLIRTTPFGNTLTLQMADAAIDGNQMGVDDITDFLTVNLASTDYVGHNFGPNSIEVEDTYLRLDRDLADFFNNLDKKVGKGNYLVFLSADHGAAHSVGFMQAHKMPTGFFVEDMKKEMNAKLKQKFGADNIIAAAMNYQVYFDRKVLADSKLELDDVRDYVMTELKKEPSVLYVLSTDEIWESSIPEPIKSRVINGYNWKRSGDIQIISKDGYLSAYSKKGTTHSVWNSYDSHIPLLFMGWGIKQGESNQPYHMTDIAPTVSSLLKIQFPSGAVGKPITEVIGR
T497V: 376 µM
Y26V: 561 µM
V382G: 545 µM
A129V: 452 µM
Y28V: 598 µM
L256G: 383 µM
Q492G: 542 µM
P149V: 195 µM
S210G: 492 µM
W180V: 444 µM
Q125G: 337 µM
F384V: 715 µM
C93G: 724 µM
G514V: 240 µM
H51G: 434 µM
L193G: 560 µM
G243V: 533 µM
T155G: 548 µM
L316V: 561 µM
Q487G: 529 µM
H63G: 8.86 µM
L396V: 665 µM
A129G: 621 µM
M268V: 571 µM
K236V: 647 µM

Sample 4 — technique: RNA Bind-n-Seq; form: RNA; matrix: in vitro; concentration: not given; setting: RNA with constant flanks, ends assumed; reference: input RNA pool; direction: higher = stronger binding; measurement: bound/input enrichment
Target: RING finger protein unkempt homolog, zinc fingers 1-6, GST-SBP tag (UNK, Homo sapiens, UniProt Q9C0B0, residues 30-357)
UniProt Q9C0B0, sequence (30-357, looked up): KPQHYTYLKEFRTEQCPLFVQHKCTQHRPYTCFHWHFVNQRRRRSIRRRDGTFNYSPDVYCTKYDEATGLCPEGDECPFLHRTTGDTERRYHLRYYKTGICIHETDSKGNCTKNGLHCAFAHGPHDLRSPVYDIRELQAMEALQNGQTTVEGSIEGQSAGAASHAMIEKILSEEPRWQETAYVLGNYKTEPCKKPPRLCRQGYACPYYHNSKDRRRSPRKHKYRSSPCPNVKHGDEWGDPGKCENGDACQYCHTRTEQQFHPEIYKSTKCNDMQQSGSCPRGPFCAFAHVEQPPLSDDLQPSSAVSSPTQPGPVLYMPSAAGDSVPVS
Constant ends, left off below: GGGAGUUCUACAGUCCGACGAUC … CAACAGAGGAUUGAGCAUCA
CAGAAACUUUGUGAAAUUGAAAGGAUACAUUUCUUUCUGAGUAAGAAAAAACCAGAUGAACUCCGAAAUCUACACAAACUGCUUUACAACAGGCCGGGCACAGUGUCCUCGUUGAAGAAG: 0.238 ratio
AUGGAGGUUAAAGUGAAGAUUCCUGAAGAAUUAAAACCAUGGCUUGUUGAGGACUGGGACUCCGUUACCAGGCAGAAGCAGCUGUUUCAACUCCCUGCCAAGAAAAAUGUAGAUGCAAUU: 0.341 ratio
UACGGGAAGGAUUUCAAUGAUAUCCGCCAGGACUUUCUACCCUGGAAGUCACUUGCAAGCACCGUCCAGUUUUAUUACAUGUGGAAAACCACAGACCGGUAUAUUCAGCAGAAAAGAUUG: 0.195 ratio
UUGGUUGUGACUUCUCUGUGUAAGUCAUCUUCUACGCCAGCUUCCCAGAACAACCUGCGGCACCCGGUCCCACCUUCGCACAACCGGUGUGAUUGACAUGAGUUCACCAGACCAGCAGGC: 0.101 ratio
UCUAUUGCUACAAGAGAGGGAGUUGCUGUUCUGUAUUCUAAACUGGUUAGCAAUAAGGAAGCCGUACCUUUGCCCCAACAAGUUUUAUGCCUCAAAGGACCACAGUUGCCAGACUUUGAA: 0.138 ratio
CGUGCUUUUGAAGAUGAUGAUAUCACGCACGUUGAAGGAAGUGUAGAUCCUAUUCGAGAUACCGAAAUAAUACAUGAAGAGCUUCAGCUUAAAGAUGAGGAAAUGAUUGGGCCCAUUAUA: 0.179 ratio
UUGCAUACACACACCCCCACCCCAGAGUGUUCUCAGUAUGUCAGAGAAAGUGCCACAGCAUCCGGACGGGAGCUUGGAGAACGUUUUCUAGAAAAGGGUUAGCUUCCUGUUGGCAUGAAA: 0.771 ratio
GAACACAGUAUGUAGGUCAAACUGGCAGUAACAGUGUACAGCCUUUGACAAACUAGAAAUAUCCGAGCCGGCCAAACACACCUCCAAACUGUAAGGCUGUGCACAAACAUAAAAAAUGGC: 0.616 ratio

For quick reference, copied from above (sample 3):
Q125G: 337 µM
T497V: 376 µM
L256G: 383 µM
P149V: 195 µM
W180V: 444 µM
H63G: 8.86 µM
M268V: 571 µM
